{"data": "Measurements of several laboratories", "note": "Every numbered part comes from another study and shows a few of its results, in no order."}
{"data": "Series 1", "target": "Histone acetyltransferase KAT6A, winged helix 1, GST fusion (KAT6A, Homo sapiens, UniProt Q92794, residues 1-85)", "method": "protein binding microarray", "form": "double-stranded DNA, one strand shown", "matrix": "in vitro", "tested at": "not given", "setting": "8-mer, flanks averaged, mean of 2 arrays, mostly near background", "reference": "not given", "direction": "higher = stronger binding", "Target sequence (chain)": "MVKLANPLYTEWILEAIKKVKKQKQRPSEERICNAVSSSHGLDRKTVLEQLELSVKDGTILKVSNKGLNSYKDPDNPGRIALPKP"}
{"Strand": "ATGATCAG", "E-score": -0.208}
{"Strand": "CCTATCCG", "E-score": 0.112}
{"Strand": "ATTGATCA", "E-score": -0.238}
{"Strand": "GTGACCGA", "E-score": 0.0854}
{"Strand": "AAAGCCGA", "E-score": 0.143}
{"Strand": "ATACAGCA", "E-score": -0.175}
{"Strand": "GATGCGGC", "E-score": 0.255}
{"Strand": "GACTCAAC", "E-score": -0.0245}
{"data": "Series 2", "target": "PABPC1L2, full length, GST fusion (mouse, UniProt A0ABA7IW68)", "method": "RNAcompete", "form": "RNA", "matrix": "in vitro", "tested at": "20 nM", "setting": "7-mer, probes averaged, single round", "reference": "mean of 7-mers", "direction": "higher = stronger binding", "Target sequence (chain)": "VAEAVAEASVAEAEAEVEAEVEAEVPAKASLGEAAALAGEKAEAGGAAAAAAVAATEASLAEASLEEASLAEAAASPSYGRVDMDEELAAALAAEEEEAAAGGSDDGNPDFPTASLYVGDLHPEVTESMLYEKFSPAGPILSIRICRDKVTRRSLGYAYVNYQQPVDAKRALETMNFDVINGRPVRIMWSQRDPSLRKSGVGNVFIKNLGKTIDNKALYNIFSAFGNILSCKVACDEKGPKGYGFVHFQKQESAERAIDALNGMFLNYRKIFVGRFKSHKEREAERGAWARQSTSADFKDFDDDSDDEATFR"}
{"Strand": "CUGGGGG", "7-mer Z-score": 0.16}
{"Strand": "CCGAACU", "7-mer Z-score": -0.277}
{"Strand": "AUUUAGG", "7-mer Z-score": 0.561}
{"Strand": "GCCGCAG", "7-mer Z-score": 0.0334}
{"Strand": "GACUAUC", "7-mer Z-score": -0.277}
{"Strand": "GUUGCCA", "7-mer Z-score": -0.0355}
{"Strand": "GAGGCAG", "7-mer Z-score": 0.254}
{"data": "Series 3", "target": "Interferon regulatory factor 7, full length, phosphomimetic (IRF7, Homo sapiens, UniProt Q92985, residues 1-503, S471D/S472D/S475D/S476D/S477D/S483D/S484D/S487D)", "method": "protein-binding microarray", "form": "double-stranded DNA, one strand shown", "matrix": "in vitro", "tested at": "2200 nM top", "setting": "60-bp whole probe", "with": "salmon DNA 0.4 mg/ml", "reference": "random background probes", "direction": "higher = stronger binding", "constant ends, left off below": "GCCTAGCAC … GTCTTGATTCGCTTGACGCTGCTG", "Residues (chain)": "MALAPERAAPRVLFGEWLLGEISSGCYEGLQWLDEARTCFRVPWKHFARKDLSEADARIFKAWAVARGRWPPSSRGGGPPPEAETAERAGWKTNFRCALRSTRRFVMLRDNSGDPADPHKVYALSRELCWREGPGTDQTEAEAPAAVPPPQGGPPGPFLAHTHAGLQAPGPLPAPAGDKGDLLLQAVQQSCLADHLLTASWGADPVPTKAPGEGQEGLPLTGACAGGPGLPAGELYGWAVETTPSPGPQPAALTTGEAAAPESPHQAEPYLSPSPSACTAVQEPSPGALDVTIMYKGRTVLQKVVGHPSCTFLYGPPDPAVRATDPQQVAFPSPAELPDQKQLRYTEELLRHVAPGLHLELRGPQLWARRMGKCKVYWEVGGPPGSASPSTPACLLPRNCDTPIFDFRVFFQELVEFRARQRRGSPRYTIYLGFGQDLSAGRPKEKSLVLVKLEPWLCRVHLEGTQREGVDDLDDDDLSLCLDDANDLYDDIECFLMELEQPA"}
{"Strand": "GACGGTATCCTACTGCTTACGTGCTAG", "fitted relative affinity": "0.901 z-score"}
{"Strand": "GACGGTCTCGGCATCGGGACGTGCTAG", "fitted relative affinity": "-0.584 z-score"}
{"Strand": "TTAGGACTGGAAACTGGGTTAGTGCTA", "fitted relative affinity": "-0.498 z-score"}
{"Strand": "AGATGAAAAGTGAAGCCTAGGTGCTAG", "fitted relative affinity": "-0.915 z-score"}
{"Strand": "TCAGAATTCAGAATGGGACTGTGCTAG", "fitted relative affinity": "-0.449 z-score"}
{"Strand": "GACGACATCAGTCTCGAGACGTGCTAG", "fitted relative affinity": "0.148 z-score"}
{"Strand": "GACGGTTTGGACTTTCGGGACGTGCTA", "fitted relative affinity": "3.12 z-score"}
{"data": "Other studies, line by line"}
{"Molecule": "PhoQ, residues 284 288 289 292 302 303 QWQEDG", "target": "PhoP, residues 12 14 15 18 19 VHSCL (Escherichia coli, UniProt P23836)", "assay": "Sort-seq, item: YFP reporter", "system": "E. coli", "setting": "PhoQ-PhoP variant library, with: 10 µM Mg2+", "scale": "reference: high Mg2+ state, higher = stronger signaling", "endpoint": "fold induction", "result": 1.37}
{"note": "A few entries again (series 2):"}
{"Strand": "GUUGCCA", "7-mer Z-score": -0.0355}
{"Strand": "GAGGCAG", "7-mer Z-score": 0.254}
